# Experimental data gathered from unrelated publications.
# A part holds a random share of what one study measured. Substitutions count along the parent as printed.

# Set 1
# Partner: ARF10 575-693 (Arabidopsis thaliana, UniProt Q9SKN5)
# Technique: two-hybrid
# Reference: out of 4 tests
# Direction: higher = firmer interaction
# B1: ARF8 699-811 (Arabidopsis thaliana, UniProt Q9FGV1); chain NSSNQTKNFVKVYKSGSVGRSLDISRFSSYHELREELGKMFAIEGLLEDPLRSGWQLVFVDKENDILLLGDDPWESFVNNVWYIKILSPEDVHQMGDHGEGSGGLFPQNPTHL
# B2: IAA34 (Arabidopsis thaliana, UniProt Q9C5X0); chain MYCSDPPHPLHLVASDKQQKDHKLILSWKKPTMDSDPLGVFPNSPKYHPYYSQTTEFGGVIDLGLSLRTIQHEIYHSSGQRYCSNEGYRRKWGYVKVTMDGLVVGRKVCVLDHGSYSTLAHQLEDMFGMQSVSGLRLFQMESEFCLVYRDEEGLWRNAGDVPWNEFIESVERLRITRRNDAVLPF
# B3: ARF5 788-902 (Arabidopsis thaliana, UniProt P93024); chain ATPRVRTYTKVQKTGSVGRSIDVTSFKDYEELKSAIECMFGLEGLLTHPQSSGWKLVYVDYESDVLLVGDDPWEEFVGCVRCIRILSPTEVQQMSEEGMKLLNSAGINDLKTSVS
# B4: ARF1 538-665 (Arabidopsis thaliana, UniProt Q8L7G0); chain SRQIRSCTKVHMQGSAVGRAIDLTRSECYEDLFKKLEEMFDIKGELLESTKKWQVVYTDDEDDMMMVGDDPWNEFCGMVRKIFIYTPEEVKKLSPKNKLAVNARMQLKADAEENGNTEGRSSSMAGSR
# B5: ARF6 790-935 (Arabidopsis thaliana, UniProt Q9ZTX8); chain SENPQSNTFVKVYKSGSFGRSLDISKFSSYHELRSELARMFGLEGQLEDPVRSGWQLVFVDRENDVLLLGDDPWPEFVSSVWCIKILSPQEVQQMGKRGLELLNSAPSSNNVDKLPSNGNCDDFGNRSDPRNLGNGIASVGGSFNY
# B6: IAA28 (Arabidopsis thaliana, UniProt Q9XFM0); chain MEEEKRLELRLAPPCHQFTSNNNINGSKQKSSTKETSFLSNNRVEVAPVVGWPPVRSSRRNLTAQLKEEMKKKESDEEKELYVKINMEGVPIGRKVNLSAYNNYQQLSHAVDQLFSKKDSWDLNRQYTLVYEDTEGDKVLVGDVPWEMFVSTVKRLHVLKTSHAFSLSPRKHGKE
# B7: IAA18 (Arabidopsis thaliana, UniProt O24408); chain MEGYSRNGEISPKLLDLMIPQERRNWFHDEKNSVFKTEEKKLELKLGPPGEEDDDESMIRHMKKEPKDKSILSLAGKYFSPSSTKTTSHKRTAPGPVVGWPPVRSFRKNLASGSSSKLGNDSTTSNGVTLKNQKCDAAAKTTEPKRQGGMFVKINMYGVPIGRKVDLSAHNSYEQLSFTVDKLFRGLLAAQRDFPSSIEDEKPITGLLDGNGEYTLTYEDNEGDKMLVGDVPWQMFVSSVKRLRVIKTSEISSALTYGNGKQEKMRR
# B8: ARF4 660-788 (Arabidopsis thaliana, UniProt Q9ZTX9); chain QSSSKRICTKVHKQGSQVGRAIDLSRLNGYDDLLMELERLFNMEGLLRDPEKGWRILYTDSENDMMVVGDDPWHDFCNVVWKIHLYTKEEVENANDDNKSCLEQAALMMEASKSSSVSQPDSSPTITRV
# Construct (chain): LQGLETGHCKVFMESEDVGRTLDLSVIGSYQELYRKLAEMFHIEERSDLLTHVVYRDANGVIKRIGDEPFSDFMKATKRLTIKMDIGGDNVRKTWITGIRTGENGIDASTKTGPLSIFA
Sequence,positive tests
B1 (ARF8 699-811),0
B2 (IAA34),1
B3 (ARF5 788-902),0
B4 (ARF1 538-665),0
B5 (ARF6 790-935),0
B6 (IAA28),0
B7 (IAA18),0
B8 (ARF4 660-788),0

# Set 2
# Target: RING finger protein unkempt homolog, zinc fingers 1-6, SBP tag (UNK, Homo sapiens, UniProt Q9C0B0, residues 30-357)
# Sequence of UniProt Q9C0B0 (30-357, looked up): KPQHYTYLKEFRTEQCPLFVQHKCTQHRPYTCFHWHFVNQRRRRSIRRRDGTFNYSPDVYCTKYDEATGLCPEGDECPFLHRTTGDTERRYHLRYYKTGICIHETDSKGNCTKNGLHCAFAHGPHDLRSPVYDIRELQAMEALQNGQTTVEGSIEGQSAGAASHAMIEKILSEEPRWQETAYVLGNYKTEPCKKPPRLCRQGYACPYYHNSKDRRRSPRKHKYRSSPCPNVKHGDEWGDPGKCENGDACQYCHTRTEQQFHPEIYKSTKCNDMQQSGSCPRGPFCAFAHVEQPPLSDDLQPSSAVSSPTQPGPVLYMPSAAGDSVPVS
# Technique: RNA Bind-n-Seq
# Molecule type: RNA
# Medium: in vitro
# Concentration: 100 nM
# Setting: RNA with constant flanks, vertebrate orthologous sites, ends assumed
# Reference: input RNA pool
# Direction: higher = stronger binding
# All sequences stand within: GGGAGUUCUACAGUCCGACGAUC … CAACAGAGGAUUGAGCAUCA
Strand,bound/input enrichment
AUGAUUUUUAAUCUCUUCUCCCCUAUCCUGGUUUUAAAAGUCUUUUUUUUUUUCUUUUAGGCAUAUGUAGUAACAUUAGCAGAAAGAUUUAAUUUGGGCAACUUUGAUUCUUAAAAGAGA,0.258 ratio
CUGUUGUGUGAAACAUGUCUACCCAGAAAAGUAAUAUUCUAUAAAUACUAUUAAACAACUUAGCUAUAUUAUUUUUAAGCAUUAAAUUAUACAUCAAGGAGUUAAAGUGAAUUUCAGAGU,0.328 ratio
CAUUUUUACAAUCUAAAACUGGUAUUUUCAAACAAUAGGAACCUUUUUUUUUUUUUUUUACAGUUUAUCUGGUUUCUACAUGGAAGACUAAAUAAACCCAUGCUUGUUGCUAAAUGGGGU,0.515 ratio
UUCAGGCACAACUGACUGGUGCCCAGCAUUCCUUACCUAGUUACCUGUCCAAUGCAGGUGUAGGUAAUUUUCAGGAAACAACCAGGCAGUCAUCCUUAUCCUGUAGUCCAGUAGGAAAUU,0.279 ratio
GAGCUAAAGGAGUUAGCAUCUUUAUUUUUGUAUCAAAGAUAAAGGUUAUUUUGAAAUUAUUAGGAUUUUUACACAACUCUGAAAUCUGUUGCUUUUUGUAUAAACAAAUUGUUUGAUCUU,1.24 ratio
AAGAUGGUGGUUGUACAUUAUUUCAUUUAGAAAAUAUAAACUUUAAUUUUGUUUUGAAGUUAGGUGUUAAACUGGAAUAGCUAUCAUACCCCGGAUAAUGGGGGCAGUUGUGCCCUUCCC,0.778 ratio
GUGACUUUGGAAGUCCGUAGUGUCUCAUUGCAGAUAAUUUUUAGCUUAGGGCCUGGUGGCUAGGUCGGUUCUCUCCUUUCCAGUCGGAGACCUCUGCCGCAAACAUGCUCCGCCAGAUCA,1.32 ratio
AACUGCUGGAGCAGAGUGCUCUGUCAGCACCAGUGGCCACCAUCCCUUCACACCACUGUCCUACUUACAGGAAUUUAAUAUUUUUAAAAGUUUUACAAUGCUGUAUAUUCAAAGAUUGUU,0.293 ratio

# Set 3
# Target: CCNA2, cyclin fold, Cln2 fusion (human)
# Technique: yeast growth competition, sequencing
# Medium: yeast
# Setting: strong parent motif
# Reference: not given
# Direction: higher = stronger binding
# Starting sequence: viral docking peptide; TSVRRALFTGGSD
Substitution,normalised enrichment score
TSVRRALFTGGHD [S12H],6.46
TSVRRGLFTGGSD [A6G],4.5
TSVRRALFTMGSD [G10M],5.87
TSVRRELFTGGSD [A6E],5.45
TSVRRALFTGRSD [G11R],6.1
TSNRRALFTGGSD [V3N],0.147
TSVRRALFTGGAD [S12A],5.92
TSVRRALFTGGQD [S12Q],6.48
TSVRRALFTGGDD [S12D],6.44
TSVRAAAFTGGSD [R5A L7A],-0.166
TSVRRALFTGGCD [S12C],6.05
TSHRRALFTGGSD [V3H],2.13
TEVRRALFTGGSD [S2E],5.31

# Other studies, line by line
# Technique: cross-linking MS
Substance,partner,medium,setting,added,quantity,result
"PDIA4 (Homo sapiens, UniProt P13667)","PDIA3 (Homo sapiens, UniProt P30101)",cell fractions,,DSSO,cross-linked residues,K366 to K218
"ATP5PF (Homo sapiens, UniProt P18859)","ATP5PB (Homo sapiens, UniProt P24539)",,hits only,,interaction screen,cross-linked

# Some of these lines once more (set 3):
Substitution,normalised enrichment score
TSVRRELFTGGSD [A6E],5.45
TSVRRALFTGRSD [G11R],6.1
